# Measured values collected from several papers.
# Every numbered part comes from another study and shows a few of its results, in no order. Values joined by “and” are separate records of one study, mostly repeats; a detail may differ.
# Chain of UniProt Q8TDR2 (whole entry, looked up): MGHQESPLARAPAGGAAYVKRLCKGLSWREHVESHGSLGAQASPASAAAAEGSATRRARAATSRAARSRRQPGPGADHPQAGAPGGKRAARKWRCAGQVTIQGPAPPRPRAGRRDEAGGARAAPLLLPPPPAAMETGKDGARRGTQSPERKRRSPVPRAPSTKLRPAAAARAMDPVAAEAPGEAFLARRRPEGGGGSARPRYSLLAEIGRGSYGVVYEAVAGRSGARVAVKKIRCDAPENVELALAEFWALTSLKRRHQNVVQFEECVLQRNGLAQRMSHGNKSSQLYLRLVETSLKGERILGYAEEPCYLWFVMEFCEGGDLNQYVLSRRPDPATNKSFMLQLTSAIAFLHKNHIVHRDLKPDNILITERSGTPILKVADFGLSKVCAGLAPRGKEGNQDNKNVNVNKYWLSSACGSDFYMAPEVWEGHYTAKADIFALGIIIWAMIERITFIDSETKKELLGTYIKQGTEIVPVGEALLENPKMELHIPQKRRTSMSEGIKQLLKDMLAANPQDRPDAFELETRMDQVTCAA
# Chain of UniProt Q14164 (whole entry, looked up): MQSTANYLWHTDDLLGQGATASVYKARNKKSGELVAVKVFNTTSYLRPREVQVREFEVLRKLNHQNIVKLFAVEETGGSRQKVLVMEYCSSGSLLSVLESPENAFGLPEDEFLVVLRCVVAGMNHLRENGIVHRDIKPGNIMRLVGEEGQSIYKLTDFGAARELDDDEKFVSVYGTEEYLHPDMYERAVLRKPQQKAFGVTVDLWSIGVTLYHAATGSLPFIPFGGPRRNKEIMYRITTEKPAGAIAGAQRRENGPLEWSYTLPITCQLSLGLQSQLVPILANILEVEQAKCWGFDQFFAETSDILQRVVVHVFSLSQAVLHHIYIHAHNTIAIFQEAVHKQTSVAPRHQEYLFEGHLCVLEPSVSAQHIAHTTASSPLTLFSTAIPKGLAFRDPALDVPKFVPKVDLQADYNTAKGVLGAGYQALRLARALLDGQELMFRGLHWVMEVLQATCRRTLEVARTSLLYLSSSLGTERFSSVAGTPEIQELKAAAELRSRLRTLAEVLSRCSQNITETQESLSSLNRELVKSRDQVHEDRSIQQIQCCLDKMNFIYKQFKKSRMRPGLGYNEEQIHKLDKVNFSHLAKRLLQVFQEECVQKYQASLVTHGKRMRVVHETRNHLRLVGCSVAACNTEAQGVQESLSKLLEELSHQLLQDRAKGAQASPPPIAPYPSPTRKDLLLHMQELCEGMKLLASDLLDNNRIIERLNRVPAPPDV
# Chain of UniProt Q9HC98 (whole entry, looked up): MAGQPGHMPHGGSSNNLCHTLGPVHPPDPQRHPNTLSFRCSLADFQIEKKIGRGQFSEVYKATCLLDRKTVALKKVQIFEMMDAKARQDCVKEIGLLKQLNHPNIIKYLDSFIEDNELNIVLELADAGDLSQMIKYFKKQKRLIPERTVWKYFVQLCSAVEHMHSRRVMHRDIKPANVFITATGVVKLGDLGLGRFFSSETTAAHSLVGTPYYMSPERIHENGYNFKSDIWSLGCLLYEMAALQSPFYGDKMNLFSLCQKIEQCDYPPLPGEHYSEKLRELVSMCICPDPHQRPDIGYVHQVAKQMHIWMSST

# Set 1 — tested at: 1 µM
# SMILES: CO[C@@H](C)c1c(Nc2ccc([C@@H](N(C)C(=O)C3CCS(=O)(=O)CC3)C(F)(F)F)cc2)cnc2cc(Cl)nn12
target,test,remaining binding [%]
"IKBKE (Homo sapiens, UniProt Q14164)","cell-free assay, competition with immobilised ligand",100
"Aurora kinase A (AURKA, Homo sapiens, UniProt O14965)","cell-free assay, competition with immobilised ligand",100
"COQ8A (Homo sapiens, UniProt Q8NI60)","cell-free assay, competition with immobilised ligand",100
"STK35 (Homo sapiens, UniProt Q8TDR2)","cell-free assay, competition with immobilised ligand",90
"LCK (Homo sapiens, UniProt P06239)","cell-free assay, competition with immobilised ligand",84
"CDK19 (Homo sapiens, UniProt Q9BWU1)",competition binding,81
"EGFR (Homo sapiens, UniProt P00533, L858R)","cell-free assay, competition with immobilised ligand",87
"SBK1 (Homo sapiens, UniProt Q52WX2)","cell-free assay, competition with immobilised ligand",100
"SIK1 (Homo sapiens, UniProt P57059)",competition binding,85
"MAP2K7 (Homo sapiens, UniProt O14733)","cell-free assay, competition with immobilised ligand",100
"NEK6 (Homo sapiens, UniProt Q9HC98)","cell-free assay, competition with immobilised ligand",100
"EPHA5 (Homo sapiens, UniProt P54756)","cell-free assay, competition with immobilised ligand",100
"FRK (Homo sapiens, UniProt P42685)","cell-free assay, competition with immobilised ligand",91
"PRPF4B (Homo sapiens, UniProt Q13523)","cell-free assay, competition with immobilised ligand",91
"PAK4 (Homo sapiens, UniProt O96013)","cell-free assay, competition with immobilised ligand",100

# Set 2 — effect on: enzyme activity; mode: inhibitor; tested at: 10 µM
# Target: Calcium/calmodulin-dependent protein kinase type II subunit alpha (CAMK2A, Homo sapiens, UniProt Q9UQM7)
# Chain of UniProt Q9UQM7 (whole entry, looked up): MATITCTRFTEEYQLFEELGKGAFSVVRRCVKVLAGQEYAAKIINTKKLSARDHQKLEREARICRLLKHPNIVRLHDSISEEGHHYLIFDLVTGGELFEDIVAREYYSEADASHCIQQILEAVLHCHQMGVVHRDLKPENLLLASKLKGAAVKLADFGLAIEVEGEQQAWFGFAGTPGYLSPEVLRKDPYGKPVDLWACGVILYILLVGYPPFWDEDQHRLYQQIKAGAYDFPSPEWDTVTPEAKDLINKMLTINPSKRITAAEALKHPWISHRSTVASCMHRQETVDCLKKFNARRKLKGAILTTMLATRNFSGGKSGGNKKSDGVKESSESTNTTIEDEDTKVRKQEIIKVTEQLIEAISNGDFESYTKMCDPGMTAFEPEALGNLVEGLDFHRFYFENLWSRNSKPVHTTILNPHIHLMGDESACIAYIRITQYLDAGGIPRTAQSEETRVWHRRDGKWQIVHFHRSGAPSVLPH
Structure (SMILES),inhibition [%]
CC(C)=CCC[C@](C)(O)[C@H]1CC[C@]2(C)[C@@H]1[C@H](O)C[C@@H]1[C@@]3(C)CC[C@H](O)C(C)(C)[C@@H]3CC[C@]12C,-49
O=c1cc(-c2ccc(O)c(O)c2)oc2cc(O[C@@H]3O[C@H](CO)[C@@H](O)[C@H](O)[C@H]3O)c(O)c(O)c12,6
CC(=O)Cc1cc(=O)c2c(C)cc(O)c([C@@H]3O[C@H](CO)[C@@H](O)[C@H](O)[C@H]3O)c2o1,7
CCN(CC)C(=O)N1CCN(C)CC1,-16
OC[C@H]1O[C@@](CO)(OC[C@@]2(OC[C@@]3(OC[C@@]4(OC[C@@]5(OC[C@@]6(O[C@H]7O[C@H](CO)[C@@H](O)[C@H](O)[C@H]7O)O[C@H](CO)[C@@H](O)[C@@H]6O)O[C@H](CO)[C@@H](O)[C@@H]5O)O[C@H](CO)[C@@H](O)[C@@H]4O)O[C@H](CO)[C@@H](O)[C@@H]3O)O[C@H](CO)[C@@H](O)[C@@H]2O)[C@@H](O)[C@@H]1O,-4

# Set 3 — effect on: RNA clamping; method: fluorescence polarization; tested at: concentration not given; together with: FAM-labelled poly r(AG)8 RNA
# Target: Eukaryotic initiation factor 4A-III (Homo sapiens, UniProt P38919)
# Chain of UniProt P38919 (whole entry, looked up): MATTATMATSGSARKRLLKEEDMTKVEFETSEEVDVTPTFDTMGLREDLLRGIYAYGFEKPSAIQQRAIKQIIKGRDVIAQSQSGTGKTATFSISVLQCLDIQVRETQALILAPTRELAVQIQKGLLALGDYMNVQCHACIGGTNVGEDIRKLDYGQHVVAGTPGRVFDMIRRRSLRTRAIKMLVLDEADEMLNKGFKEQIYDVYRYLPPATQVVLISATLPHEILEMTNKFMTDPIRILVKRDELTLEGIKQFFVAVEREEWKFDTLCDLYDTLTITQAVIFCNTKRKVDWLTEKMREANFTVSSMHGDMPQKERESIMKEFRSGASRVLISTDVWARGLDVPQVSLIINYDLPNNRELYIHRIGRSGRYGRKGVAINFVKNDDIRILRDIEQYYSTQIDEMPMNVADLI
SMILES,fluorescence polarization change
COC(=O)[C@@H]1[C@@H](c2ccccc2)[C@]2(c3ccc(OC)cc3)Oc3cc(OC)cc(OC)c3[C@@]23NC(c2cccnc2)=N[C@@]13O,26.8 mP
COc1ccc([C@@]23Oc4cc(OC)cc(OC)c4[C@]2(O)[C@H](O)[C@H](C(=O)c2cc4cccc(OC)c4o2)[C@H]3c2ccccc2)cc1,5.3 mP
COC(=O)[C@@H]1[C@@H](c2ccccc2)[C@]2(c3ccc(OC)cc3)Oc3cc(OC)cc(OC)c3[C@@]23NC(c2ccc(N(C)C)cc2)=N[C@@]13O,16.2 mP
C#CCCC1(CCOc2cc(OC)c3c(c2)O[C@@]2(c4ccc(OC)cc4)[C@H](c4ccccc4)[C@@H](C(=O)c4ccco4)[C@@H](O)[C@@]32O)N=N1,-2.1 mP
CO/N=C(\c1ccco1)[C@H]1[C@@H](O)[C@@]2(O)c3c(OC)cc(OC)cc3O[C@@]2(c2ccc(OC)cc2)[C@@H]1c1ccccc1,7.7 mP
COc1ccc([C@@]23Oc4cc(OC)cc(OC)c4[C@]2(O)[C@H](O)[C@H](C(=O)NCCCC(OC)OC)[C@H]3c2ccccc2)cc1,46.8 mP

# Set 4 — effect on: enzyme activity; mode: inhibitor; tested at: 77 µM; reference: untreated
# Target: DNA polymerase theta, ATPase domain (POLQ, Homo sapiens, UniProt O75417)
# Chain of UniProt O75417 (whole entry, unmodified, looked up): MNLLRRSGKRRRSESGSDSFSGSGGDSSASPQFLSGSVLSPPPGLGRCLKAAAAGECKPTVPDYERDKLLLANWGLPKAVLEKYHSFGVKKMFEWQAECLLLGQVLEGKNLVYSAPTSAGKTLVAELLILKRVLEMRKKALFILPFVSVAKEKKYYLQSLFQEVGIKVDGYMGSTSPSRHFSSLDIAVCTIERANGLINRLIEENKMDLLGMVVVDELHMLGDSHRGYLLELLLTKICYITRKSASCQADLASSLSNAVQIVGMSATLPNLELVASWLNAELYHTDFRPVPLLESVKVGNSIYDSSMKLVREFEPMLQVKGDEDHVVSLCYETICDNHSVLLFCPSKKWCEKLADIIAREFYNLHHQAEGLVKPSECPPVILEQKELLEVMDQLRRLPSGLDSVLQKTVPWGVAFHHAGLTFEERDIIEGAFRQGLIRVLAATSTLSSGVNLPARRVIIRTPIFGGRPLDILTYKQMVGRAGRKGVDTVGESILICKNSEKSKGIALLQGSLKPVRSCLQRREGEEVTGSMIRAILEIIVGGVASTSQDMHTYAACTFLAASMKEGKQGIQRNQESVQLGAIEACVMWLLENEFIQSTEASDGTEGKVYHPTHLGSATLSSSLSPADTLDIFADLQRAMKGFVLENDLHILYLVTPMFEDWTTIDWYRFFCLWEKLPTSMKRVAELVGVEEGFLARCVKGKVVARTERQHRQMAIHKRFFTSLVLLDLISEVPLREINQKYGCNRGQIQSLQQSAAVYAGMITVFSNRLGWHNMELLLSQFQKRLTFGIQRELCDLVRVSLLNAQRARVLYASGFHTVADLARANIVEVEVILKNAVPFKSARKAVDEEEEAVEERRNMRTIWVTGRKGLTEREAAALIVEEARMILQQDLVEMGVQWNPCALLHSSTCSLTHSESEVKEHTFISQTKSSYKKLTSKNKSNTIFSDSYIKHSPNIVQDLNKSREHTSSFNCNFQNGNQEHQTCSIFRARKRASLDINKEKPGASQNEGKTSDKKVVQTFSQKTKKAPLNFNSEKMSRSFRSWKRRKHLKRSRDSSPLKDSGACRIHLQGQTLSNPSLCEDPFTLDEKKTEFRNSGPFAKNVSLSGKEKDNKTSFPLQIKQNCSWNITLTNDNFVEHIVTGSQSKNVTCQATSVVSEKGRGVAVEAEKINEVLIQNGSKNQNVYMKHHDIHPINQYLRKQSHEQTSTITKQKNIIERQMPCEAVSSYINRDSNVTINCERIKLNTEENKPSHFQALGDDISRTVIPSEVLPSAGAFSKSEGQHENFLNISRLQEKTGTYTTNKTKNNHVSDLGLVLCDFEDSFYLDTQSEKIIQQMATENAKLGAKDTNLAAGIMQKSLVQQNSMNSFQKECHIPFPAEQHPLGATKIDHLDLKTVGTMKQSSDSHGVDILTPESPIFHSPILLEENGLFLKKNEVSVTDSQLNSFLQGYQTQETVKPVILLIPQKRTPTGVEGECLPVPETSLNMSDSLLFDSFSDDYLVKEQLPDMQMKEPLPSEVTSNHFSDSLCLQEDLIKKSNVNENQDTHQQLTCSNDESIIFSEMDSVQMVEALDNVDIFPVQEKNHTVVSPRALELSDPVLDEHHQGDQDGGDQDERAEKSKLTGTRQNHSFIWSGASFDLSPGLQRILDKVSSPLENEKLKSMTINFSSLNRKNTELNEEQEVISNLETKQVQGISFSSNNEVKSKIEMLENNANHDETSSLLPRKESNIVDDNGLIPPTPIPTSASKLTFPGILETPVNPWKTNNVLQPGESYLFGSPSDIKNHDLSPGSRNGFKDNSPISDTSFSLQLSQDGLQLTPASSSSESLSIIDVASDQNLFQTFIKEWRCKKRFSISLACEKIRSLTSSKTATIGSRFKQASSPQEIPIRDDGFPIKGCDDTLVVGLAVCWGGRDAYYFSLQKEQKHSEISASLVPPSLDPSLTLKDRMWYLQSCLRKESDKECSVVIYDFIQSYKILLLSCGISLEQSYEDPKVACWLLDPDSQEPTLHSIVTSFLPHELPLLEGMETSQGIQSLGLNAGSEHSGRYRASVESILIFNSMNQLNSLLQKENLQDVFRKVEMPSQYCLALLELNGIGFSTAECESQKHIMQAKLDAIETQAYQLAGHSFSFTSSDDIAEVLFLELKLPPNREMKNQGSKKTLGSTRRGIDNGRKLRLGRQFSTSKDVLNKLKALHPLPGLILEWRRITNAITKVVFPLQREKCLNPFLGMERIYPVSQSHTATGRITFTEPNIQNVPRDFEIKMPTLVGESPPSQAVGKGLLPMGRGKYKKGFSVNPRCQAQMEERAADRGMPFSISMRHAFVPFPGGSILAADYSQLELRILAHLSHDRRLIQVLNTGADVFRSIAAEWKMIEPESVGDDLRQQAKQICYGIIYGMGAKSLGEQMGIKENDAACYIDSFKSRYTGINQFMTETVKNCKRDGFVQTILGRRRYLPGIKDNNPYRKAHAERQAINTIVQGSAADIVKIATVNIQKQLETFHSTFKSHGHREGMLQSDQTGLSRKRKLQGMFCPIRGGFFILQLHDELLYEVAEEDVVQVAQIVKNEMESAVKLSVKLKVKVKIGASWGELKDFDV
Structure (SMILES),remaining activity
COc1ccc(-c2ccc3c(N4CCOCC4)nc(N4C[C@@H](C)O[C@@H](C)C4)nc3n2)cc1CO,94.7% and 108% and 106%
C=CC[C@H](N)C(=O)O,86.5%
C[C@H]1C[C@H]2[C@@H]3CCC4=CC(=O)C=C[C@]4(C)[C@@]3(Cl)[C@@H](O)C[C@]2(C)[C@@]1(O)C(=O)CO,95%
CC(C)(C)Cn1c(N)nc2ccc(-c3[nH]c(C(C)(C)C)nc3-c3ccc(F)cc3)nc21,102%
Cn1nnc2c(C(N)=O)ncn2c1=O,92%
Cc1ccc(NC(=O)C2(c3ccc4c(c3)OC(F)(F)O4)CC2)nc1-c1cccc(C(=O)O)c1,96.6%

# Some of these lines once more (set 3):
SMILES,fluorescence polarization change
COC(=O)[C@@H]1[C@@H](c2ccccc2)[C@]2(c3ccc(OC)cc3)Oc3cc(OC)cc(OC)c3[C@@]23NC(c2cccnc2)=N[C@@]13O,26.8 mP
COc1ccc([C@@]23Oc4cc(OC)cc(OC)c4[C@]2(O)[C@H](O)[C@H](C(=O)c2cc4cccc(OC)c4o2)[C@H]3c2ccccc2)cc1,5.3 mP
